Measurements pooled from the literature.
Numbers after ± are the reported error.
Method: steady-state kinetics
B1: enzyme (Bacillus pumilus, UniProt A8FFI9); chain EARSIAWSVDEFFKNREGTFVIQEVKEKSPWVYNKKRAKERFAPQSTFKVANALIGLQTGAVRDEYDIKYWDGVKREIDNWNRDHTLGSGMRDSVVWYYQAMARDIGEERMNHWVKAIHYGNKDISGGIDQFWLSSTLRISPIEQVRFLKQLYEETLPFDLKNMRTVKRMMVQEEEKHATLYGKTGSGSDIGWYVGFIKHEHKTYILATNIKGTGIEAKDITYRILKKYHLMEASV
B2: enzyme G29Y (Thermobifida fusca, UniProt Q47RA9); chain MIMIMASKSSPHDLPDVSGLSIAVLGGTYDQGRGLARRFAMAGHEVILGSRSAERAQAVAAELGEGLPVRGMDNAGAAEAGDVVIVAVPWDGHRALLESLKDVLAGKIVVDCVNPLGFDKRGAYALPVEEGSAAEQAAAILPDSRVVAAFHHVSAVLLLDPEVEKVDLDVLVLGDDREATDVVRALAARIPGVRGVYGGRLRNAHQVEAFTANLISINRRYKAHAGIRITDI
B3: ASRGL1 (Homo sapiens, UniProt Q7L266); chain 1 MNPIVVVHGGGAGPISKDRKERVHQGMVRAATVGYGILREGGSAVDAVEGAVVALEDDPEFNAGCGSVLNTNGEVEMDASIMDGKDLSAGAVSAVQCIANPIKLARLVMEKTPHCFLTDQGAAQFAAAMGVPEIPGEKLVTERNKKRLEKEKHEKGAQKTDCQKNLG; chain 2 TVGAVALDCKGNVAYATSTGGIVNKMVGRVGDSPCLGAGGYADNDIGAVSTTGHGESILKVNLARLTLFHIEQGKTVEEAADLSLGYMKSRVKGLGGLIVVSKTGDWVAKWTSTSMPWAAAKDGKLHFGIDPDDTTITDLP
B4: cyc1 V329A (Streptomyces coelicolor, UniProt Q9K499); chain MHAFPHGTTATPTAIAVPPSLRLPVIEAAFPRQLHPYWPKLQETTRTWLLEKRLMPADKVEEYADGLCYTDLMAGYYLGAPDEVLQAIADYSAWFFVWDDRHDRDIVHGRAGAWRRLRGLLHTALDSPGDHLHHEDTLVAGFADSVRRLYAFLPATWNARFARHFHTVIEAYDREFHNRTRGIVPGVEEYLELRRLTFAHWIWTDLLEPSSGCELPDAVRKHPAYRRAALLSQEFAAWYNDLCSLPKEIAGDEVHNLGISLITHHSLTLEEAIGEVRRRVEECITEFLAVERDALRFADELADGTVRGKELSGAVRANVGNMRNWFSSAYWFHHESGRYMVDSWDDRSTPPYVNNEAAGEK
B5: YdjH (Escherichia coli, UniProt P77493); chain MDNLDVICIGAAIVDIPLQPVSKNIFDVDSYPLERIAMTTGGDAINEATIISRLGHRTALMSRIGKDAAGQFILDHCRKENIDIQSLKQDVSIDTSINVGLVTEDGERTFVTNRNGSLWKLNIDDVDFARFSQAKLLSLASIFNSPLLDGKALTEIFTQAKARQMIICADMIKPRLNETLDDICEALSYVDYLFPNFAEAKLLTGKETLDEIADCFLACGVKTVVIKTGKDGCFIKRGDMTMKVPAVAGITAIDTIGAGDNFASGFIAALLEGKNLRECARFANATAAISVLSVGATTGVKNRKLVEQLLEEYEG
B6: protein Y93N (Thermus thermophilus, UniProt Q5SKR5); chain MSAPKPFVIGIAGGTASGKTTLAQALARTLGERVALLPMDHYYKDLGHLPLEERLRVNYDHPDAFDLALYLEHAQALLRGLPVEMPVYDFRANTRSPRRTPVRPAPVVILEGILVLYPKELRDLMDLKVFVDADADERFIRRLKRDVLERGRSLEGVVAQYLEQVKPMHLHFVEPTKRYADVIVPRGGQNPVALEMLAAKALARLARMGAA
B7: Rtr1 residues 1-226 (Saccharomyces cerevisiae, UniProt P40084); chain MATIEDIKETALIPFQKHRQLSMHEAEVITLEIIGLLCDSECKDEKTLKYLGRFLTPDMYQDLVDERNLNKRCGYPLCGKSPERIRDPFSMNDTTKKFLLENNPYAYLSHYCSKFHFRCSQFYQVQLSDEALFARTGVHLFEDPEQDKHDIDFKVTLFEELLREKASEEDIKSLISGLKKLGLNPDSGTTEKDDTELEDDLSKWLAQIKIVENDNPSILGDFTRED
B8: enzyme (Brachypodium distachyon, UniProt I1IPY7); chain MEQGKAALGWAARDASGHLSPYNFSRRVQKDDDVTIKVLFCGICHTDLHIIKNEWGNALYPIVPGHEVVGVVTDVGPGVKNFKAGETVGVGYFLDSCRTCDSCSKGHENYCPTLVLTSNGVDYDGATTQGGFSDVVVVNQDYVVRVPDTLPPDGAAPLLCAGVTVYSPMMQYGLNAPGKHLGVVGLGGLGHMAVKFGKAFGMKVTVISSSLRKREEALDRLGADDFLVSSDAEQMKAAAGAMDGIIDTVSAGHPIVPLLELLRPMGQMVVCGAPSEPLQLPAYAVITGGKRIAGNGVGSVRDCQAMLDFAGEHGITADVEVVKMDYVNTAVERLERNDVRYRFVIDVAGSLQQGGAA
B9: iodotyrosine deiodinase (Haliscomenobacter hydrossis, UniProt F4KU78); chain MKQKPAFIPYAGAQFEPEEMLSKSAEYYQFMDHRRTVREFSNRAIPLEVIENIVMTASTAPSGAHKQPWTFVVVSDPQIKAKIRQAAEKEEFESYNGRMSNEWLEDLQPFGTDWHKPFLEIAPYLIVVFRKAYDVLPDGTQRKNYYVQESVGIACGFLLAAIHQAGLVALTHTPSPMNFLQKILQRPENERPFLLVPVGYPAEGAMVPDLQRKDKAAVMVVY
B10: HCT R356D (Coleus scutellarioides, UniProt E8ZAP2); chain MKIHVRDSTLVRPSAATPAVSLWNSNVDLVVPNFHTPSVYFYRPSGADNFFDTAVMKAALGRALVSFYPMAGRLKRDEDGRVEIDCNAEGVLFVEAESDGTVDDYGDFAPSLELRRLIPAVDYSQGISAYPLLVLQVTFFKCGGVSLGVGMQHHAADGFSGLHFINTWSDMARGLDITLPPFIDRTLLSARDPPQPQFKHVEYQPPPAMKTYEPAETVVSIFKLTKDQLTTLKAKSKEDGNTTTYSSYEMLSGHVWRCTCLARGLPEEQETKLYIATDGRSRLQPQLPPGYFGNVIFTATPLAVAGDLGSKPVWYAASKIHDALARMDNDYLRSALDFLELQPDLKALVRGAHTFDCPNLGITSWVRLPIHDADFGWGRPIFMGPGGIAYEGLSFVLPSPTNDGSLSVAISLQAEHMKLFEKLLYQI
B11: Paox H64Q (Mus musculus, UniProt Q8C0L6); chain MAFPGPRVLVVGSGIAGLGAAQKLCSHRAAPHLRVLEATASAGGRIRSERCFGGVVELGAHWIQGPSQDNPVFQLAAEFGLLGEKELSEENQLVDTGGHVALPSMIWSSSGTSVSLELMTEMARLFYGLIERTREFLNESETPMASVGEFLKKEISQQVASWTEDDEDTRKRKLAILNTFFNIECCVSGTHSMDLVALAPFGEYTVLPGLDCILAGGYQGLTDRILASLPKDTVAFDKPVKTIHWNGSFQEAAFPGETFPVLVECEDGARLPAHHVIVTVPLGFLKEHQDTFFEPPLPAKKAEAIKKLGFGTNNKIFLEFEEPFWEPDCQFIQVVWEDTSPLQDTALSLQDTWFKKLIGFLVQPSFESSHVLCGFIAGLESEFMETLSDEEVLLSLTQVLRRVTGNPQLPAAKSVRRSQWHSAPYTRGSYSYVAVGSTGDDLDLMAQPLPEDGTGTQLQVLFAGEATHRTFYSTTHGALLSGWREADRLVSLWDSQVEQSRPRL
B12: POLK T408W/W214Y/W392H (Homo sapiens, UniProt Q9UBT6); chain MGLNDNKAGMEGLDKEKINKIIMEATKGSRFYGNELKKEKQVNQRIENMMQQKAQITSQQLRKAQLQVDRFAMELEQSRNLSNTIVHIDMDAFYAAVEMRDNPELKDKPIAVGSMSMLSTSNYHARRFGVRAAMPGFIAKRLCPQLIIVPPNFDKYRAVSKEVKEILADYDPNFMAMSLDEAYLNITKHLEERQNYPEDKRRYFIKMGSSVENDNPGKEVNKLSEHERSISPLLFEESPSDVQPPGDPFQVNFEEQNNPQILQNSVVFGTSAQEVVKEIRFRIEQKTTLTASAGIAPNTMLAKVCSDKNKPNGQYQILPNRQAVMDFIKDLPIRKVSGIGKVTEKMLKALGIITCTELYQQRALLSLLFSETSHHYFLHISLGLGSTHLWRDGERKSMSVERTFSEINKAEEQYSLCQELCSELAQDLQKERLKGRTVTIKLKNVNFEVKTRASTVSSVVSTAEEIFAIAKELLKTEIDADFPHPLRLRLMGVRISSFPNEEDRKHQQ
B13: Nudt8 (Mus musculus, UniProt Q9CR24); chain MLPDGLSAEDEQRCRQLLARTTARLRSRPAAAAVLVPLCLVRGVPALLYTLRSSRLVGRHKGEVSFPGGKCDPDDQDVIHTALRETQEELGLEVPKEHVWGVLQPVYDREKATIVPVLANVGPLDLQSLRPNLEEVDEVFEMSLAHLLQTQNQGYTHFCQGGHFSYTLPVFLHGPHRVWGLTAVITELTLKLLAPGFYQPSLAVPELPRG
Chain of UniProt P19337 (whole entry, looked up): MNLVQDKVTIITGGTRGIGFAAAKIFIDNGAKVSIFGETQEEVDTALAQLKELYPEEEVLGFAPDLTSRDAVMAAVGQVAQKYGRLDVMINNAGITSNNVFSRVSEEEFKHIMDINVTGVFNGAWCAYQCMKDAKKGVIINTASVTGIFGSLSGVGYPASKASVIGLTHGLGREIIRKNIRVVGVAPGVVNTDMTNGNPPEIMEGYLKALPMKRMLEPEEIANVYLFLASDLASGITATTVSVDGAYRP
Chain of UniProt P14780 (whole entry, looked up): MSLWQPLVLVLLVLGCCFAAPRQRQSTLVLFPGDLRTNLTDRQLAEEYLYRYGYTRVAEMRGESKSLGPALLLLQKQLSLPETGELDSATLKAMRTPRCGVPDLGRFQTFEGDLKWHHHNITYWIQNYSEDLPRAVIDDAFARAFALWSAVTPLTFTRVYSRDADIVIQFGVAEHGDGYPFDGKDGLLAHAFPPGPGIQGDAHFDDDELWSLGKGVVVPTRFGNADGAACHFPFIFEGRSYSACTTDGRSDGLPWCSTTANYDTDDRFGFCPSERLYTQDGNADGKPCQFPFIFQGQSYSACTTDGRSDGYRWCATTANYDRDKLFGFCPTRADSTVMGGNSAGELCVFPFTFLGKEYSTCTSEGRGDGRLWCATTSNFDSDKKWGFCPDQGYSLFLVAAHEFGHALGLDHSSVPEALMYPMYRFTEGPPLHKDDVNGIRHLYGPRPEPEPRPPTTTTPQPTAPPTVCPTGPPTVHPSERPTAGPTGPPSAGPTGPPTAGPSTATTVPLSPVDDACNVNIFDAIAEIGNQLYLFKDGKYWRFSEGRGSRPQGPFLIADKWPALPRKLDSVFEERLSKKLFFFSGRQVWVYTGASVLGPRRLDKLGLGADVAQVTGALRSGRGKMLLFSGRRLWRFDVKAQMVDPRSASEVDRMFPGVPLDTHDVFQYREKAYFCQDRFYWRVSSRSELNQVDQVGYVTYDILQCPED
Chain of UniProt Q8QZR1 (whole entry, looked up): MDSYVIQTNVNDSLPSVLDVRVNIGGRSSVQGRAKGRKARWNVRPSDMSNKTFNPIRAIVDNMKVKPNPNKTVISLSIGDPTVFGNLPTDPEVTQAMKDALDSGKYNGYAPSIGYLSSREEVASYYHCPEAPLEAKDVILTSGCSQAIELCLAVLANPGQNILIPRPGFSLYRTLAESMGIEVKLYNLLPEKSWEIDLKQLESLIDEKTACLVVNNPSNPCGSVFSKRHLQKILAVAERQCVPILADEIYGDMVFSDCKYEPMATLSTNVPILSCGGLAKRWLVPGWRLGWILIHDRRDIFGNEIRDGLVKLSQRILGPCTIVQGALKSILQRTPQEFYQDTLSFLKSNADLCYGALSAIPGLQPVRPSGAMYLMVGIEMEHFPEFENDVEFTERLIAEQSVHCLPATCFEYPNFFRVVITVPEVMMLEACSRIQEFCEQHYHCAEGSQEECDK

For `protein (Cecembia lonarensis, UniProt K1KV82)`, the kcat/Km was 509 ± 44 M⁻¹ s⁻¹ (O=[N+]([O-])c1ccc(O[C@@H]2OC[C@H](O)[C@@H](O)[C@@H]2O)cc1; pH 5.5, 35 °C, substrate inhibition).
`B1 (enzyme)` gave a kcat/Km of 3400 ± 900 M⁻¹ s⁻¹ (C[C@@H](O)[C@H]1C(=O)N2C(C(=O)O)=C(S[C@@H]3CN[C@H](CNS(N)(=O)=O)C3)[C@H](C)[C@H]12; pH 7).
The kcat/Km of `B2 (enzyme G29Y)` is reported as 4.5 ± 1 M⁻¹ s⁻¹ (NC(=O)c1ccc[n+](CCO)c1; pH 8, 25 °C).
With `B3 (ASRGL1)` the kcat/Km was 4000 ± 500 M⁻¹ s⁻¹ (CC(C)C[C@H](NC(=O)C[C@H](N)C(=O)O)C(=O)O; pH 7.4, 37 °C, NaCl 100 mM).
With `MMP9 (Homo sapiens, UniProt P14780)` the kcat/Km was 230000 M⁻¹ s⁻¹ (CSCC[C@H](NC(=O)CNC(=O)[C@H](CC(C)C)NC(=O)[C@@H]1CCCN1C(=O)CNC(C)=O)C(=O)N[C@@H](Cc1c[nH]cn1)C(=O)NCC(=O)N[C@@H](CCCCN)C(N)=O).
For `B4 (cyc1 V329A)`, the kcat/Km was 270000 ± 50000 M⁻¹ s⁻¹ (CC(C)=CCC/C(C)=C/CC/C(C)=C/CO[P@@](=O)(O)OP(=O)(O)O; pH 6.5, 30 °C, together with: MgCl2 10 mM).
`B5 (YdjH)` gave a kcat/Km of 24.4 ± 0.8 M⁻¹ s⁻¹ (O=C(CO)[C@@H](O)[C@H](O)[C@H](O)[C@@H](O)CO; pH 7.4, 30 °C, KCl 100 mM, together with: ATP 2.0 mM, MgCl2 5.0 mM).
For `B6 (protein Y93N)`, the kcat/Km was 8700 M⁻¹ s⁻¹ (Nc1ccn([C@@H]2O[C@H](CO)[C@@H](O)[C@H]2O)c(=O)n1; pH 7.2, 25 °C, KCl 100 mM, together with: ATP 100–200 µM).
For `B7 (Rtr1 residues 1-226)`, the kcat/Km was 6e+06 M⁻¹ s⁻¹ (Cc1cc(=O)oc2c(F)c(OP(=O)(O)O)c(F)cc12; pH 6, NaCl 150 mM, no metal added).
`B8 (enzyme)` gave a kcat/Km of 4.96e+06 M⁻¹ s⁻¹ (NC(=O)C1=CN([C@@H]2O[C@H](COP(=O)(O)OP(=O)(O)OC[C@H]3O[C@@H](n4cnc5c(N)ncnc54)[C@H](OP(=O)(O)O)[C@@H]3O)[C@@H](O)[C@H]2O)C=CC1; pH 5.35, 23 °C, cofactor varied).
The kcat/Km of `B9 (iodotyrosine deiodinase)` is reported as 7000 ± 3000 M⁻¹ s⁻¹ (N[C@@H](Cc1cc(F)c(O)c(I)c1)C(=O)O; pH 7.4, 25 °C).
`B10 (HCT R356D)` gave a kcat/Km of 769 ± 41.5 M⁻¹ s⁻¹ (NCc1ccc(O)c(O)c1; pH 8, pseudo-first-order, together with: p-coumaroyl CoA).
The kcat/Km of `B11 (Paox H64Q)` is reported as 1600 ± 600 M⁻¹ s⁻¹ (c1ccc(CNCCCCNCc2ccccc2)cc1; pH 8.6, 30 °C).
For `B12 (POLK T408W/W214Y/W392H)`, the kcat/Km was 13000 M⁻¹ s⁻¹ (Nc1ccn([C@H]2C[C@H](O)[C@@H](COP(=O)(O)OP(=O)(O)OP(=O)(O)O)O2)c(=O)n1; pH 7.5, 23 °C, MgCl2 5 mM, together with: G template).
`BaiA2 (Clostridium scindens, UniProt P19337)` has a kcat/Km of 9320 M⁻¹ s⁻¹ (C[C@H](CCC(=O)SCCNC(=O)CCNC(=O)[C@H](O)C(C)(C)COP(=O)(O)OP(=O)(O)OC[C@H]1O[C@@H](n2cnc3c(N)ncnc32)[C@H](O)[C@@H]1OP(=O)(O)O)[C@H]1CC[C@H]2[C@@H]3CC[C@@H]4C[C@H](O)CC[C@]4(C)[C@H]3C[C@H](O)[C@]12C; pH 8.7, 37 °C, together with: NAD+).
For `enzyme (Phocaeicola vulgatus, UniProt A6KWY2)`, the kcat/Km was 8e+06 ± 400000 M⁻¹ s⁻¹ (NC(=O)c1ccc[n+]([C@@H]2O[C@H](COP(=O)(O)OP(=O)(O)OC[C@H]3O[C@@H](n4cnc5c(N)ncnc54)[C@H](OP(=O)(O)O)[C@@H]3O)[C@@H](O)[C@H]2O)c1; pH 8, 30 °C, cofactor varied).
With `B13 (Nudt8)` the kcat/Km was 9830 M⁻¹ s⁻¹ (CCCCCC(=O)SCCNC(=O)CCNC(=O)[C@H](O)C(C)(C)COP(=O)(O)OP(=O)(O)OC[C@H]1O[C@@H](n2cnc3c(N)ncnc32)[C@H](O)[C@@H]1OP(=O)(O)O; pH 8.5, together with: 2 mM Mn2+).
`Tat (Mus musculus, UniProt Q8QZR1)` gave a kcat/Km of 22700 M⁻¹ s⁻¹ (O=C(O)C(=O)Cc1ccc(O)cc1; pH 7, 38 °C, together with: PLP).

A few entries again:
The kcat/Km of `B2 (enzyme G29Y)` is reported as 4.5 ± 1 M⁻¹ s⁻¹ (NC(=O)c1ccc[n+](CCO)c1; pH 8, 25 °C).
With `B3 (ASRGL1)` the kcat/Km was 4000 ± 500 M⁻¹ s⁻¹ (CC(C)C[C@H](NC(=O)C[C@H](N)C(=O)O)C(=O)O; pH 7.4, 37 °C, NaCl 100 mM).
